Assay results pooled from the literature.
A part holds a random share of what one study measured. pIC50: −log10 of the molar value.
Chain of UniProt Q8WXR4 (whole entry, looked up): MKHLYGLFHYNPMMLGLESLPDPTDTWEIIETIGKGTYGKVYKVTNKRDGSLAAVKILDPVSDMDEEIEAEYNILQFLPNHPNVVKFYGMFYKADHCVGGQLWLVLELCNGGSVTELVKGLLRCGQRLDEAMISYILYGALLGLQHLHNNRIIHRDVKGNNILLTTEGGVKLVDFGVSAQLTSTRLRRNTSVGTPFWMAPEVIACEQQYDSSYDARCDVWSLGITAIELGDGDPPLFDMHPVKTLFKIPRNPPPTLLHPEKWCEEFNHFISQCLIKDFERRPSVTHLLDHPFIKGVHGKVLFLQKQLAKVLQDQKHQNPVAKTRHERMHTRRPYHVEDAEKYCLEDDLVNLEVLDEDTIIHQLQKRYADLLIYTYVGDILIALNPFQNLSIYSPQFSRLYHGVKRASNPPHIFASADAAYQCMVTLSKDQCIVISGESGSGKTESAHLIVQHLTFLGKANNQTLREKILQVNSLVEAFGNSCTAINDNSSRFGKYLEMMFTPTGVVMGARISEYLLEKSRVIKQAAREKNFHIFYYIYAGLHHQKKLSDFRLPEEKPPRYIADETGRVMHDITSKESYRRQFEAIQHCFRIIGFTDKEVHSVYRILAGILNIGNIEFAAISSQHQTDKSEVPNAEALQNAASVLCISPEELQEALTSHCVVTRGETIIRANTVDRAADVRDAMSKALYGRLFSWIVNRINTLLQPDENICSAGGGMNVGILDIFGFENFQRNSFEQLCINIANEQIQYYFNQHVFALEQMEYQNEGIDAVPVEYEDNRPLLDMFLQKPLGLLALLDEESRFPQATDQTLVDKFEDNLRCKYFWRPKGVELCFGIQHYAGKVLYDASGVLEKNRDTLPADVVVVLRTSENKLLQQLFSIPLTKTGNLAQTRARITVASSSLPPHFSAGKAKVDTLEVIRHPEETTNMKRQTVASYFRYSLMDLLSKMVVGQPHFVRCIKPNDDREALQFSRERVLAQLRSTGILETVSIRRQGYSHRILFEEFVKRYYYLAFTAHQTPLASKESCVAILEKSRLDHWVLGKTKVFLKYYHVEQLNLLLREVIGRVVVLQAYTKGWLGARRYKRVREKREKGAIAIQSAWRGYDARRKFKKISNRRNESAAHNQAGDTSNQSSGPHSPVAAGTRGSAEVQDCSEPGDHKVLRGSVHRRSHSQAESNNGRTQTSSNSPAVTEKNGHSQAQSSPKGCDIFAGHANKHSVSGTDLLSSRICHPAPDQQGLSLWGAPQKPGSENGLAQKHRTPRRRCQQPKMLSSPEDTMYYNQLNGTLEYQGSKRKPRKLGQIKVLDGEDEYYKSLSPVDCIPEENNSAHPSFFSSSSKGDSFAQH
Chain of UniProt Q12866 (whole entry, looked up): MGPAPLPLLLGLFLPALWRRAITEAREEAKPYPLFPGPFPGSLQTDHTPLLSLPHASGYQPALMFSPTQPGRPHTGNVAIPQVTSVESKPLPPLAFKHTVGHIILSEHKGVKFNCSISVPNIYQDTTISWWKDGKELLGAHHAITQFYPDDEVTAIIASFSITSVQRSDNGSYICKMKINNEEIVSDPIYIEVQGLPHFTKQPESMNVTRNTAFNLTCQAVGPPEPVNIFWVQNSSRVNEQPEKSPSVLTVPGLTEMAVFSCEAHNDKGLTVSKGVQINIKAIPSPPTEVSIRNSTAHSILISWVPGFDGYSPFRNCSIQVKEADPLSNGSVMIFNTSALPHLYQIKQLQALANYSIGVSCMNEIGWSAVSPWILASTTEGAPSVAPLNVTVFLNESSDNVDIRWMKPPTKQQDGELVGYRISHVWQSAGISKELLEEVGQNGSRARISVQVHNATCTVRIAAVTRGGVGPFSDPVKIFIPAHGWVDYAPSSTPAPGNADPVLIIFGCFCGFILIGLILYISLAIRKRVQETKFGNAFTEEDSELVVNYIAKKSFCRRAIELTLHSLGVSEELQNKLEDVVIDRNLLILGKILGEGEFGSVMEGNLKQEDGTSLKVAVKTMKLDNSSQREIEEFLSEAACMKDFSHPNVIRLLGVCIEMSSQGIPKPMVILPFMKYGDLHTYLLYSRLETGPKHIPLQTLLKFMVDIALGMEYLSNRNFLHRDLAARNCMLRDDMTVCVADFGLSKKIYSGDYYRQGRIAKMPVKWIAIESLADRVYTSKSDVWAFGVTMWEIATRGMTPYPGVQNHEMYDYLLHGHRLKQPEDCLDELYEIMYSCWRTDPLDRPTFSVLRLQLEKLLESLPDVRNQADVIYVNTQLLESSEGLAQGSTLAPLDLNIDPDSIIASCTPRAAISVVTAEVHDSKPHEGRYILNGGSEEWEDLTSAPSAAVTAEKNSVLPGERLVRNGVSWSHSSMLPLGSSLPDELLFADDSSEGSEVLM
Chain of UniProt Q96Q40 (whole entry, looked up): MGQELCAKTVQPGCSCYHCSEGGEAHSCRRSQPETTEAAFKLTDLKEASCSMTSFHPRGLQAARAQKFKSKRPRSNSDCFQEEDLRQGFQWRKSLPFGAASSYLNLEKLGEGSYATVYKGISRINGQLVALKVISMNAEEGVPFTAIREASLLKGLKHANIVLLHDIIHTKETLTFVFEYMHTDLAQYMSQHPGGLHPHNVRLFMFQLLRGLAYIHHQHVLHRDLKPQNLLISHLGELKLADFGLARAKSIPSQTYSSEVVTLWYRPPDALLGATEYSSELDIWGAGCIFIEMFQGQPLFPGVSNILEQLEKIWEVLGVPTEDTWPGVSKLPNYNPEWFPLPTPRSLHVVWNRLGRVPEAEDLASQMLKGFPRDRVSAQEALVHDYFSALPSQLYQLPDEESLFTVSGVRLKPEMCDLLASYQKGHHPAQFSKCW
Chain of UniProt P42681 (whole entry, looked up): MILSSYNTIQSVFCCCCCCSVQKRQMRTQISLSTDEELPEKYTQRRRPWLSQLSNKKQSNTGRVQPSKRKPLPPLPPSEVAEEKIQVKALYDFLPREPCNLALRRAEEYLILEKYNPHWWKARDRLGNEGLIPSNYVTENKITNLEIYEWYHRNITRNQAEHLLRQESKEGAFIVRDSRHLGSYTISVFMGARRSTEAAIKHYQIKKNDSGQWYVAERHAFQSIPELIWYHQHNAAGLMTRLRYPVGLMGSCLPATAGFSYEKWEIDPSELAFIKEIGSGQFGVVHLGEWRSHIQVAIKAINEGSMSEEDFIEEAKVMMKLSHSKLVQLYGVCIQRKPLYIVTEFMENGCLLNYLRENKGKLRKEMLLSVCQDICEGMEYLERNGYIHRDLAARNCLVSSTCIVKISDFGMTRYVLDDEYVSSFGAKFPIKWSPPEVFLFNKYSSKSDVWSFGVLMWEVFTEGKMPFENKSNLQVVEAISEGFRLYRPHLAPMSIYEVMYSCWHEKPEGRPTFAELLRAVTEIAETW

Series 1 — technique: competition with immobilised ligand; concentration: 0.1 µM
SMILES: C[C@H](c1ccnc(Nc2nc3ccc(-c4cc(N(C)C)ncn4)cc3[nH]2)c1)N1CCN(C(=O)CC(F)(F)F)CC1
| target | assay | remaining binding [%] |
| --- | --- | --- |
| Myosin-IIIb (MYO3B, Homo sapiens, UniProt Q8WXR4) | binding | 100 |
| STK4 (Homo sapiens, UniProt Q13043) | cell-free assay | 100 |
| KIT (Homo sapiens, UniProt P10721, D816H) | cell-free assay | 82 |
| MAP3K15 (Homo sapiens, UniProt Q6ZN16) | cell-free assay | 96 |
| PRKD3 (Homo sapiens, UniProt O94806) | cell-free assay | 100 |
| CDK15 (Homo sapiens, UniProt Q96Q40) | cell-free assay | 100 |
| MERTK (Homo sapiens, UniProt Q12866) | cell-free assay | 97 |
| TXK (Homo sapiens, UniProt P42681) | binding | 96 |
| CLK3 (Homo sapiens, UniProt P49761) | cell-free assay | 100 |

Series 2 — species: mouse; sample: microsomes or S9; concentration: 2 µM; time: 0.5 h
| SMILES | remaining compound [%] |
| --- | --- |
| CCCNC(=O)NC(=O)CNC1(C(=O)OC(C)(C)C)CCCC1 | 0.524 |
| c1ccc(Cn2c(-c3ccc(Oc4ccccc4)cc3)cn3ncnc23)cc1 | 0.115 |
| Cc1ccc(S(=O)(=O)c2c(-c3ccccc3)n(C#Cc3ccccc3)c3ccccc23)cc1 | 24.4 |
| C(=C\c1ccccc1)/CN1CCN(c2cnc3ccccc3n2)CC1 | 40.3 |
| COC(=O)CNC(=O)C(C)NC(=O)/C=C/c1cc(-n2nc(C)n(C(F)F)c2=O)c(F)cc1Cl (stereo not shown) | 24.4 |
| CCCc1c(C)[nH]c2[nH]n(-c3ccccc3)c(=O)c2c1=O | > 99 |
| Cc1ccccc1-c1noc(-c2ccc[nH]c2=O)n1 | 35.2 |
| O=c1c(/C=N/Nc2nc3ccccc3s2)c(C(F)(F)F)[nH]n1-c1nc2ccccc2s1 | > 99 |
| CC(C)N1/C(=C/C2=Cc3ccccc3OC2)C(=O)c2ccccc2S1(=O)=O | 3.02 |
| CCn1nc(C)c(CNc2nc(N)nc3nc[nH]c23)n1 | 94.9 |
| CN1C(=O)N(C)C2(CCN(CCOc3ccccc3)C2)C1=O (stereo not shown) | 43.3 |
| CN(C)c1ccc2c(c1)C(c1ccccc1)CC2=O (stereo not shown) | 1.46 |
| Clc1ccc(-c2cn3c4ccccc4n(CCN4CCCCC4)c3n2)cc1Cl | 4.2 |
| COc1ccc2c(c1)OC1c3ccc(O)cc3OCC21 (stereo not shown) | 11.9 |
| CCc1nn2c(=O)c(CC(=O)OC)c(C)[nH]c2c1-c1ccccc1 | 84.6 |
| CC1CN(C(=O)C(C)(C)C)CC(C)N1C(=O)[C@@H]1C[C@H](C)CC(=O)N1 (stereo partly shown) | > 100 |
| NC(=O)Cc1csc(NC(=O)CCNC2=NS(=O)(=O)c3ccccc32)n1 | > 100 |
| OC1(Cc2cccc(Br)c2)CCNCC1 | 76.7 |
| Cc1cc2cc(NC(=O)c3cc4nccc(-c5cnn(C)c5C)n4n3)cc(Cl)c2o1 | > 100 |
| CCc1nnc(NCCc2cncn2C)c(C#N)c1CC | 73.8 |
| CS(=O)(=O)NCCOc1ccccc1-c1ccccc1 | 98.9 |
| Cc1cc(C#N)cc(NC(=O)C(F)(F)F)c1NC(=O)c1cc(Br)nn1-c1ncccc1Cl | 4.42 |
| CCCc1nc(C(=O)N2C[C@@H](CN3C[C@@H](C)O[C@@H](C)C3)[C@@H](CO)C2)cs1 | 43.1 |
| Fc1cnc(NC2CCN(C3CCOC3)CC2)nc1 (stereo not shown) | 100 |

Series 3 — action: antagonist
Target: Beta-1 adrenergic receptor (ADRB1, Homo sapiens, UniProt P08588)
Chain of UniProt P08588 (whole entry, looked up): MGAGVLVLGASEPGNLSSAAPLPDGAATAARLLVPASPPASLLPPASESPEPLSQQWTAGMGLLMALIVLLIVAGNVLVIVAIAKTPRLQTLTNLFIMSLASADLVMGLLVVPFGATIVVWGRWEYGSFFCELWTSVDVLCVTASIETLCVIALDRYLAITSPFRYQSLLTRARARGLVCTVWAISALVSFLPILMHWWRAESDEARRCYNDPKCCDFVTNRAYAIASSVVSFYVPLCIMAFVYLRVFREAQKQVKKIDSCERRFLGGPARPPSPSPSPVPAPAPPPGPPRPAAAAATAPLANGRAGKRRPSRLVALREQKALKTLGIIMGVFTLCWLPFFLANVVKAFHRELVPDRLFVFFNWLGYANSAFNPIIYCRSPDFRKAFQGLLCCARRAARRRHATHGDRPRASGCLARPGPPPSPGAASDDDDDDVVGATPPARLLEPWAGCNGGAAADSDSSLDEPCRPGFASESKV
| Compound | pIC50 |
| --- | --- |
| Cc1cn([C@@H]2O[C@H](CO)[C@@H](O)[C@H]2O)c(=O)[nH]c1=O | ≤ 4.00 |
| CN(C)c1ccc(-c2nnnn2[C@H]2CO[C@H]3[C@@H]2OC[C@@H]3N[S+](=O)([O-])c2cccc3cccnc23)cc1 | ≤ 4.00 |
| N#Cc1ccccc1NC(=O)c1sc2cc(F)ccc2c1Cl | ≤ 4.00 |
| Cc1nn2c(=O)cc(CSc3nnc(-c4ccccc4C)o3)nc2s1 | ≤ 4.00 |
| C[C@@H](O)[C@H](NC(=O)[C@@H]1CSSC[C@H](NC(=O)[C@H](N)Cc2ccccc2)C(=O)N[C@@H](Cc2ccc(O)cc2)C(=O)N[C@H](Cc2c[nH]c3ccccc23)C(=O)N[C@@H](CCCCN)C(=O)N1)C(N)=O | ≤ 4.00 |
| CNC(=O)c1cc2cc(-c3c(C)noc3C)nc(-c3ccccc3C)c2o1 | ≤ 4.00 |
| Cc1cccc(NC(=O)COc2ccc3c(C)cc(=O)oc3c2)c1 | ≤ 4.00 |
| O=c1c2nc(-c3ccccc3)ccc2ncn1-c1ccc(F)cc1F | ≤ 4.00 |
| Cc1cc(C)n(-c2cc(OCC3CCN(c4nc5c(cc4C#N)CCC5)CC3)ncn2)n1 | ≤ 4.00 |
| Cc1cc(O)c(C(C)(C)C)cc1Sc1cc(C(C)(C)C)c(O)cc1C | 4.85 |
| C[n+]1ccc(-c2c3nc(c(-c4cc[n+](C)cc4)c4ccc([nH]4)c(-c4cc[n+](C)cc4)c4nc(c(-c5cc[n+](C)cc5)c5ccc2[nH]5)C=C4)C=C3)cc1 | ≤ 4.00 |
| COc1ccc2[nH]cc(C3=CCN(c4ccc(C#N)cc4F)CC3)c2c1 | ≤ 4.00 |

Series 4 — read-out: enzyme activity; action: inhibitor; concentration: 0.5 µM; baseline: control
Target: Receptor tyrosine-protein kinase erbB-4 (ERBB4, Homo sapiens, UniProt Q15303)
Chain of UniProt Q15303 (whole entry, looked up): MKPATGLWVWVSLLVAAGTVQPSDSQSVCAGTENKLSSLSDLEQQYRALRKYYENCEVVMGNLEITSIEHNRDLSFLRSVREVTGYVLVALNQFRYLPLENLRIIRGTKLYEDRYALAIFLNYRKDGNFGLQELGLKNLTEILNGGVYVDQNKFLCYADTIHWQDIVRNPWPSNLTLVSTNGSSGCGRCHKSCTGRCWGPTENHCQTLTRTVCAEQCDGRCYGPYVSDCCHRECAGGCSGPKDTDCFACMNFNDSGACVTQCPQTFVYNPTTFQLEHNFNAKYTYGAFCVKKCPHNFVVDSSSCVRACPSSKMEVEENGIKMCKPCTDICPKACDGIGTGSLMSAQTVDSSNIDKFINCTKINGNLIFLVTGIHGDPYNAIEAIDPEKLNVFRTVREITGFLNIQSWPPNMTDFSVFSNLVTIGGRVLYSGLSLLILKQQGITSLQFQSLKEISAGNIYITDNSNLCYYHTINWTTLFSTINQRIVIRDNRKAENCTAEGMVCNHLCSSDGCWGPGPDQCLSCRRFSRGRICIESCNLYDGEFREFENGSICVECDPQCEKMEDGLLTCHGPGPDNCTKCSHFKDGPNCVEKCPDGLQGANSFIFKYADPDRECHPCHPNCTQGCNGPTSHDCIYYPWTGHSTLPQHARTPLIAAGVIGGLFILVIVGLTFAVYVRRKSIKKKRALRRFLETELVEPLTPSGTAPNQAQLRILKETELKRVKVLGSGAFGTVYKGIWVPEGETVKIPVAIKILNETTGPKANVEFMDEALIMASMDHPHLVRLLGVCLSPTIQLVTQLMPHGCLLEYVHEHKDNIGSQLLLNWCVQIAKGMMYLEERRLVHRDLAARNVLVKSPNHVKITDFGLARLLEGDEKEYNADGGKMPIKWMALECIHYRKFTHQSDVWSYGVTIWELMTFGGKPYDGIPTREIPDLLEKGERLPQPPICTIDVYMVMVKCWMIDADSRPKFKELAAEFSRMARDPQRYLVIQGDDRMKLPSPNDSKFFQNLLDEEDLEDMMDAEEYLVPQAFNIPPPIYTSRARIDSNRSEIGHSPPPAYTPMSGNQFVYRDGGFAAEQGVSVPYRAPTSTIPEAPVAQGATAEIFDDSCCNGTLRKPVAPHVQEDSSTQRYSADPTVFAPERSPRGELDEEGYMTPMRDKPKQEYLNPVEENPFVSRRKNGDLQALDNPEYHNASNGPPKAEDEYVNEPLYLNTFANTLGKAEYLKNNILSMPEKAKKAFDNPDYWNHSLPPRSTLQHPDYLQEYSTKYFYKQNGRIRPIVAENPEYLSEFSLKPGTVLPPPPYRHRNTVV
| Compound | remaining activity [%] |
| --- | --- |
| N#CC(=C(N)Sc1ccc(N)cc1)c1ccccc1C(F)(F)F | 89.9 |
| CCCC(=O)Oc1ccc2[nH]c(C(=O)c3cc4ccccc4[nH]3)cc2c1 | 99.8 |
| Cc1cc(Nc2nc(-c3ccccc3)nc3ccccc23)n[nH]1 | 92 |
| O=C1Cc2c([nH]c3ccc([N+](=O)[O-])cc23)-c2ccccc2N1 | 87.3 |
| Oc1ccc(Nc2nc(-c3ccc(Cl)cc3)cs2)cc1 | 83.3 |
| Cc1cncc2cccc(S(=O)(=O)N3CCCN(C(=O)CN)C[C@@H]3C)c12 | 78.4 |
| Cc1ccc(NC2=CC(=O)c3sc(C)nc3C2=O)cc1 | 98.5 |
| Nc1nc(Nc2ccc(S(N)(=O)=O)cc2)nn1C(=O)c1c(F)cccc1F | 110 |
| Nc1ncnc2c1cnn2-c1ccccc1 | 101 |
| CC#CC(=O)Nc1cc2c(Nc3ccc(F)c(Cl)c3)ncnc2cn1 | 1.95 |
